Measured values pooled from the literature.
Protocols differ between the studies behind these lines. Several values in a cell are separate wells, animals, samples, runs or records.
B1: human GANAB; sequence looked up; chain ITLAVDRSNFKTCEESSFCKRQRSIRPGLSPYRALLDSLQLGPDSLTVHLIHEVTKVLLVLELQGLQKNMTRFRIDELEPRRPRYRVPDVLVADPPIARLSVSGRDENSVELTMAEGPYKIILTARPFRLDLLEDRSLLLSVNARGLLEFEHQRAPRVSQGSKDPAEGDGAQPEETPRDGDKPEETQGKAEKDEPGAWEETFKTHSDSKPYGPMSVGLDFSLPGMEHVYGIPEHADNLRLKVTEGGEPYRLYNLDVFQYELYNPMALYGSVPVLLAHNPHRDLGIFWLNAAETWVDISSNTAGKTLFGKMMDYLQGSGETPQTDVRWMSETGIIDVFLLLGPSISDVFRQYASLTGTQALPPLFSLGYHQSRWNYRDEADVLEVDQGFDDHNLPCDVIWLDIEHADGKRYFTWDPSRFPQPRTMLERLASKRRKLVAIVDPHIKVDSGYRVHEELRNLGLYVKTRDGSDYEGWCWPGSAGYPDFTNPTMRAWWANMFSYDNYEGSAPNLFVWNDMNEPSVFNGPEVTMLKDAQHYGGWEHRDVHNIYGLYVHMATADGLRQRSGGMERPFVLARAFFAGSQRFGAVWTGDNTAEWDHLKISIPMCLSLGLVGLSFCGADVGGFFKNPEPELLVRWYQMGAYQPFFRAHAHLDTGRREPWLLPSQHNDIIRDALGQRYSLLPFWYTLLYQAHREGIPVMRPLWVQYPQDVTTFNIDDQYLLGDALLVHPVSDSGAHGVQVYLPGQGEVWYDIQSYQKHHGPQTLYLPVTLSSIPVFQRGGTIVPRWMRVRRSSECMKDDPITLFVALSPQGTAQGELFLDDGHTFNYQTRQEFLLRRFSFSGNTLVSSSADPEGHFETPIWIERVVIIGAGKPAAVVLQTKGSPESRLSFQHDPETSVLVLRKPGINVASDWSIHLR
B2: human KIF2C; sequence looked up; chain AMDSSLQARLFPGLAIKIQRSNGLIHSANVRTVNLEKSCVSVEWAEGGATKGKEIDFDDVAAINPELLQLLPLHPKDNLPLQENVTIQKQKRRSVNSKIPAPKESLRSRSTRMSTVSELRITAQENDMEVELPAAANSRKQFSVPPAPTRPSCPAVAEIPLRMVSEEMEEQVHSIRGSSSANPVNSVRRKSCLVKEVEKMKNKREEKKAQNSEMRMKRAQEYDSSFPNWEFARMIKEFRATLECHPLTMTDPIEEHRICVCVRKRPLNKQELAKKEIDVISIPSKCLLLVHEPKLKVDLTKYLENQAFCFDFAFDETASNEVVYRFTARPLVQTIFEGGKATCFAYGQTGSGKTHTMGGDLSGKAQNASKGIYAMASRDVFLLKNQPCYRKLGLEVYVTFFEIYNGKLFDLLNKKAKLRVLEDGKQQVQVVGLQEHLVNSADDVIKMIDMGSACRTSGQTFANSNSSRSHACFQIILRAKGRMHGKFSLVDLAGNERGADTSSADRQTRMEGAEINKSLLALKECIRALGQNKAHTPFRESKLTQVLRDSFIGENSRTCMIATISPGISSCEYTLNTLRYADRVKELSPHSGPSGEQLIQMETEEMEACSNGALIPGNLSKEEEELSSQMSSFNEAMTQIRELEEKAMEELKEIIQQGPDWLELSEMTEQPDYDLETFVNKAESALAQQAKHFSALRDVIKALRLAMQLEEQASRQISSKKRPQ

Molecule | tested on | assay | test system | conditions | scale | measurement | value
CTCTAACTCT | Salmonella enterica serovar Typhimurium | RNA-seq, measured: mig-14 (SL1344_2765) | peptide, SL1344 | 5 µM, 15 min | baseline: water control | log2 fold change | 1.99
Polymyxin B | Staphylococcus aureus | DiSC3(5) fluorescence | – | concentration not given, 75 min | higher = more depolarisation | membrane depolarisation | 454 a.u. and 597 a.u. and 524 a.u.
colistin | Escherichia coli | broth microdilution | clinical isolate RKI-No_583/16 | – | – | MIC | ≤ 0.5 µg/mL
B1 (human GANAB) | PP6C (human) | co-immunoprecipitation, IP-MS | CYB5R4 knockout cells | concentration not given | baseline: CYB5R4 knockout over parental | log2 fold change | -0.42
colistin | Pseudomonas aeruginosa | – | PER-producing clinical isolate S13-35 | – | – | MIC | 0.5 µg/mL
Polymyxin B | Pseudomonas aeruginosa | – | ATCC 27853 | 31.2 µg per disc, 24 h, 37 °C | – | inhibition zone diameter | 8 mm
B2 (human KIF2C) | PP6C (human) | co-immunoprecipitation, IP-MS | CYB5R4 knockout cells | concentration not given | baseline: CYB5R4 knockout over parental | log2 fold change | -1.03
CTCATAGACT | Salmonella enterica serovar Typhimurium | RNA-seq, measured: kup (SL1344_3847) | peptide, SL1344 | 5 µM, 15 min | baseline: water control | log2 fold change | -1.99
Nisin | Bacillus subtilis | bacterial cytological profiling | ATCC 6633 | concentration not given | – | cell length | 1.96 µm and 1.87 µm and 1.97 µm
GCCATGCTTT (PNA, CPP-conjugated) | Salmonella enterica serovar Typhimurium | – | peptide, SL1344 | 10 µM, 8 h | baseline: initial count | log reduction | 1.84 log CFU/mL
milbemycin oxime | Saccharomyces cerevisiae | cell growth | Pdr5 deleted, Cdr1 overexpressed | 2^-6.966 µg/mL | – | OD600 | 1.02 and 0.976 and 0.99
TCATCCGCTG (PNA, CPP-conjugated) | Salmonella enterica serovar Typhimurium | measured: CFU | peptide, SL1344, Caenorhabditis elegans infection model, worms | 4 × MIC, 24 h | baseline: untreated | bacterial load reduction | 98.7%
GACATACTCT | Salmonella enterica serovar Typhimurium | RNA-seq, measured: nuoC (SL1344_2295) | peptide, SL1344 | 5 µM, 15 min | baseline: water control | log2 fold change | -2.58

Excerpt of the above:
Molecule | tested on | assay | test system | conditions | scale | measurement | value
CTCTAACTCT | Salmonella enterica serovar Typhimurium | RNA-seq, measured: mig-14 (SL1344_2765) | peptide, SL1344 | 5 µM, 15 min | baseline: water control | log2 fold change | 1.99
Nisin | Bacillus subtilis | bacterial cytological profiling | ATCC 6633 | concentration not given | – | cell length | 1.96 µm and 1.87 µm and 1.97 µm
